Assay results collected from several papers.
Values joined by “and” are separate records of one study, mostly repeats; a detail may differ. Numbers after ± are the reported error.

SMILES	test system	conditions	endpoint	value
N[C@]1(c2ccccc2Cl)CCC[C@H](O)C1=O	Wistar rat	intravenous, 20 mg/kg	volume of distribution at steady state	6.16 ± 0.476 L/kg
O=C1CC(=O)N(c2ccccc2)c2cc(Cl)ccc2N1	C57BL/6 mice, whole blood	oral, 3 mg/kg	Cmax	4.1 µM
COc1ccc(-n2cc(C(=O)N3C[C@]4(OC(=O)c5ccccc5NC(C)=O)CC[C@H](OC)[C@@]56[C@@H]4C[C@@H]([C@@H]35)[C@@]3(O)C[C@H](OC)[C@H]4C[C@@H]6[C@]3(O)[C@H]4OC)nn2)cc1	Sprague-Dawley rat, plasma	intravenous, 2 mg/kg	MRT(0-inf)	29 min
Cc1cc(C)c2cc(C(=O)NC3CCCCCCC3)[nH]c2c1	mouse	oral, 100 mg/kg	AUC(0-t)	31.4 mg·h/kg
CC1CCc2c(sc3nc(SCCCN4CCCCC4)nc(N)c23)C1 (stereo not shown)	mouse liver microsomes	30 min	metabolized compound	99%
CCCCCc1cc(OC(=O)C(NC(=O)C(N)C(C)C)C(C)C)c2c(c1)OC(C)(C)C1CCC(C)=CC21 (stereo not shown)	rabbit cornea in vitro	RMβCD, Cremophor, polysorbate or tyloxapol formulations	transcorneal permeation	not detected
Nc1nc(SCCCN2CCCCC2)nc2sc3c(c12)CCC(c1ccccc1)C3 (stereo not shown)	human liver microsomes	30 min	metabolized compound	22% and < 25%
CN(C)CC1CCCCC1(O)c1cccc(O)c1 (stereo not shown)	Caco-2	1 µM, 3 h, pH 7.4	efflux ratio	0.9
CC(C)C1=C(OC(=O)Cc2ccccc2)C(=O)C2=C(C=C[C@H]3C(C)(C)CCC[C@]23C)C1=O	Artemia salina, artificial seawater	100 ppm, 24 h	mortality	32.4%
CC(C)(C)C1CCc2c(sc3nc(SCCN4CCCC4)nc(N)c23)C1 (stereo not shown)	human liver microsomes	30 min	metabolized compound	< 25% and 23%

Some of these lines once more:
SMILES	test system	conditions	endpoint	value
Cc1cc(C)c2cc(C(=O)NC3CCCCCCC3)[nH]c2c1	mouse	oral, 100 mg/kg	AUC(0-t)	31.4 mg·h/kg
